{"data": "Published values pooled from the literature", "note": "A part holds a random share of what one study measured. Several values in a cell are separate wells, animals, samples, runs or records.", "chain of UniProt P41145 (whole entry, looked up)": "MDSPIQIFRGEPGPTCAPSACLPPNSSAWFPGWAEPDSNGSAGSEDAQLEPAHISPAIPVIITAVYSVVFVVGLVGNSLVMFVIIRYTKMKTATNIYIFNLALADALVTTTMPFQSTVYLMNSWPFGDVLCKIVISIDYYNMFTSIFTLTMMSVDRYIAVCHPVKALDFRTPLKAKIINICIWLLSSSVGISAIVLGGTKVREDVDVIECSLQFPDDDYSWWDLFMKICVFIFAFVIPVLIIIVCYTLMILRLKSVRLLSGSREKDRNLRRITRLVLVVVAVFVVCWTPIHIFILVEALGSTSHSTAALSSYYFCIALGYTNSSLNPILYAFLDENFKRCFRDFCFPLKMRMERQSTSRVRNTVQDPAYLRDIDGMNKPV", "chain of UniProt Q01959 (whole entry, looked up)": "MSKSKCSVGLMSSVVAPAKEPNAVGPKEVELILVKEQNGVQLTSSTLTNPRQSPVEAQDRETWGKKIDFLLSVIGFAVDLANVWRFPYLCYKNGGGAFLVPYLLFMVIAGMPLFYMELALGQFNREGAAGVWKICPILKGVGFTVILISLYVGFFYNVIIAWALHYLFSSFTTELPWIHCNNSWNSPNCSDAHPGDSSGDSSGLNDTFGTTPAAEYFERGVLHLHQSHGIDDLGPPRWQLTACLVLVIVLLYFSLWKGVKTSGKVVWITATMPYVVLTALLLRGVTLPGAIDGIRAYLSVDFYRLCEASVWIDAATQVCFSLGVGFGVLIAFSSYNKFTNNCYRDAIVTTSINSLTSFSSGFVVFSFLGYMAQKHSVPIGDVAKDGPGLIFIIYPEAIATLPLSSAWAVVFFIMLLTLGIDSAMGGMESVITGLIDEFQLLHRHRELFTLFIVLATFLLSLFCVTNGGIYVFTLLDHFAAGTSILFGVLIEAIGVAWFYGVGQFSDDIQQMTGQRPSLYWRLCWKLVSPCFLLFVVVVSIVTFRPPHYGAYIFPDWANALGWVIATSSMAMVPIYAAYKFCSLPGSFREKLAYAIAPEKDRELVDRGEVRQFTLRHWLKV", "chain of UniProt P11229 (whole entry, looked up)": "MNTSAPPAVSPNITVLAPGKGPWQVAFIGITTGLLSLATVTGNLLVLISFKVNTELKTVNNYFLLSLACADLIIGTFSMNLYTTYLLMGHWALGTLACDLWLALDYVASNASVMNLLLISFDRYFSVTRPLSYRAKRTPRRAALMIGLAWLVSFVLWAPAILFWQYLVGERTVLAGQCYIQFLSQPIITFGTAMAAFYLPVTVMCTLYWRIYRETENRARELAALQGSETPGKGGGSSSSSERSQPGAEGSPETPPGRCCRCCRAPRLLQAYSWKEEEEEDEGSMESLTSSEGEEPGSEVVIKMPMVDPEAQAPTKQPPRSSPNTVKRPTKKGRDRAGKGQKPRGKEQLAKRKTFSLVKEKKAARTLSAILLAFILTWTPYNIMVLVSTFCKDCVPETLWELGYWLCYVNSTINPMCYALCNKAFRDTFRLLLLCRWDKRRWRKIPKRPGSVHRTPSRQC", "chain of UniProt P20309 (whole entry, looked up)": "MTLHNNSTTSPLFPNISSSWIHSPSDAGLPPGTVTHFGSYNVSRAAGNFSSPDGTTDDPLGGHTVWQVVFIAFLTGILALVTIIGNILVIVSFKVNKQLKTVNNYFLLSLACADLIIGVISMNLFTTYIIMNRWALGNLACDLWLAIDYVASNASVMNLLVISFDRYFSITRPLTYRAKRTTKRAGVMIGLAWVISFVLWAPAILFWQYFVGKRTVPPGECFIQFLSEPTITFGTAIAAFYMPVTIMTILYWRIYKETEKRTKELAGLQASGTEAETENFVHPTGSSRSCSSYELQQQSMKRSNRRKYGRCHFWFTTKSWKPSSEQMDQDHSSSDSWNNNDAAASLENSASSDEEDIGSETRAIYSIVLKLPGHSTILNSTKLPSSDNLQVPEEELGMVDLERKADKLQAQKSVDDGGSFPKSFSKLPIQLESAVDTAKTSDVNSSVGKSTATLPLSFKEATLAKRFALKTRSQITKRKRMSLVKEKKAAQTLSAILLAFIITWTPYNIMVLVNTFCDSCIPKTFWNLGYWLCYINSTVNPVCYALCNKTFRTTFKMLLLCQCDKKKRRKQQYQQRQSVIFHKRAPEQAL"}
{"data": "Block 1", "SMILES": "O=C(O)[C@H]1[C@H](Cn2nnc3ccccc3c2=O)CC[C@@H]1C(=O)c1ccc(OCCC2CCOCC2)cc1", "observed": "ligand displacement", "concentration": "10 µM"}
{"target": "Muscarinic acetylcholine receptor M1 (CHRM1, Homo sapiens, UniProt P11229)", "inhibition [%]": 18}
{"target": "Muscarinic acetylcholine receptor M3 (CHRM3, Homo sapiens, UniProt P20309)", "inhibition [%]": -7.32}
{"target": "Sodium-dependent dopamine transporter (SLC6A3, Homo sapiens, UniProt Q01959)", "inhibition [%]": -10.4}
{"target": "Kappa-type opioid receptor (OPRK1, Homo sapiens, UniProt P41145)", "inhibition [%]": -3.04}
{"data": "Block 2", "cell line": "mouse MPNST tumor cells", "method": "high-content immunofluorescence imaging", "refers to": "nuclear SOX9", "concentration": "10 µM", "time": "12 h", "notes": "mean of 2 replicates", "relative to": "DMSO control", "reading": "higher = more nuclear SOX9"}
{"SMILES": "Fc1cc(F)c2c(c1)[C@H]1C=CC[C@H]1C(c1cccnc1)N2 (stereo partly drawn)", "nuclear SOX9 intensity": "106 % of DMSO"}
{"SMILES": "COc1ccc(Cc2nccc3cc(OC)c(OC)cc23)cc1OC", "nuclear SOX9 intensity": "109 % of DMSO"}
{"SMILES": "CC(=O)NCCCOc1ccc(C(=O)N2CCC(N3C(=O)CCc4ccccc43)CC2)cc1", "nuclear SOX9 intensity": "105 % of DMSO"}
{"SMILES": "CC(C)(C)NCC(O)c1cc(Cl)c(N)c(Cl)c1 (stereo not drawn)", "nuclear SOX9 intensity": "89.6 % of DMSO"}
{"SMILES": "O=C(O)C1=CCCN(CCOC(c2ccc(C(F)(F)F)cc2)c2ccc(C(F)(F)F)cc2)C1", "nuclear SOX9 intensity": "87.4 % of DMSO"}
{"SMILES": "COC(=O)N1CCN(C(=O)Cc2ccc(Cl)c(Cl)c2)C(CN2CCCC2)C1 (stereo not drawn)", "nuclear SOX9 intensity": "99.6 % of DMSO"}
{"SMILES": "O=C(c1ccc(-c2cccc(C(F)(F)F)c2)o1)N1CCN2CCC1CC2", "nuclear SOX9 intensity": "150 % of DMSO"}
{"SMILES": "CC(C)(N)Cc1ccccc1", "nuclear SOX9 intensity": "104 % of DMSO"}
{"SMILES": "CC(C)(O)[C@H]1O[C@H]2CC[C@@]3(C)[C@@](O)(CC[C@H]4Cc5c([nH]c6ccccc56)[C@@]43C)C2=CC1=O", "nuclear SOX9 intensity": "105 % of DMSO"}
{"data": "Block 3", "Structure (SMILES)": "CNC(=O)c1ccc(-c2cnn3ccc(C(=O)N(C)c4ccc(Cl)c(C(=O)OC)c4)cc23)cc1", "organism": "Cryptosporidium parvum", "species": "neonatal calves", "dose": "dose not given", "reading": "direction not given"}
{"time": "day 4", "notes": "first reading", "fecal consistency score": "2 and 1"}
{"time": "day 2 post-treatment", "fecal consistency score": "1 and 3"}
{"time": "day 6", "notes": "first reading", "fecal consistency score": "2 and 1"}
{"time": "day 5 post-treatment", "fecal consistency score": "1 and 2"}
{"time": "day 6", "notes": "second reading", "fecal consistency score": "2 and 1"}
{"data": "Block 4", "organism": "Sarcocystis neurona", "observed": "parasite activity", "concentration": "10 µM", "time": "96 h"}
{"Compound": "c1ccc(Cn2ccnc2)cc1", "activity class": "inactive"}
{"Compound": "C[C@H]1CCC[C@H](O)CCCCCc2cc(O)cc(O)c2C(=O)O1", "activity class": "inactive"}
{"Compound": "Oc1cc(Cl)ccc1Oc1ccc(Cl)cc1Cl", "activity class": "inactive"}
{"note": "A few entries again (block 2):"}
{"SMILES": "O=C(c1ccc(-c2cccc(C(F)(F)F)c2)o1)N1CCN2CCC1CC2", "nuclear SOX9 intensity": "150 % of DMSO"}
{"SMILES": "CC(C)(N)Cc1ccccc1", "nuclear SOX9 intensity": "104 % of DMSO"}
{"SMILES": "CC(C)(O)[C@H]1O[C@H]2CC[C@@]3(C)[C@@](O)(CC[C@H]4Cc5c([nH]c6ccccc56)[C@@]43C)C2=CC1=O", "nuclear SOX9 intensity": "105 % of DMSO"}
